Results gathered from unrelated publications.
Protocols differ between the studies behind these lines. ± gives the spread as reported.
Organism: Salmonella typhimurium

SMILES	test	system	conditions	how to read	measurement	result
O=[N+]([O-])c1ccc(NC2CCNCC2)c(C(F)(F)F)c1	genotoxicity, SOS/umu test	TA1535/pSK1002	0.031 mg/mL, 4 h, without S9, full range	–	induction factor	0.9
CC(=O)N1CCC(C(=O)N2CCN3C(=O)c4cc(-c5ccccc5)ccc4NC(=O)C3C2)CC1 (stereo not drawn)	–	TA1537	158 µg/plate, added: rat liver S9	–	revertants per plate	15
Cc1cc(C(=O)NC(C)(C)COc2cccc3c2C(N)=NS(=O)(=O)N3)cc(C)n1	Ames test, initial	TA1535	15.0 µg/plate, added: rat liver S9	reference: solvent control	revertant ratio	1
COc1cccc(-c2n[nH]c(SCc3ccccn3)n2)c1OC	Ames test, plate incorporation	TA100	0.016 mg/plate, without S9	–	revertant colonies per plate	106
COCCN(CCOC)N=O	mutagenicity, Ames plate incorporation	TA100	500 µg/plate, 3 d, without S9, methanol	–	revertant colonies per plate	124 ± 8
O=[N+]([O-])c1ccc(N2CCC(NCCC(O)c3ccc(F)c4ccccc34)CC2)c(C(F)(F)F)c1 (stereo not drawn)	SOS response, SOS/umu test	TA1535/pSK1002, TGA medium	0.000244 mg/mL, 4 h, added: 10% rat liver S9	reference: untreated	induction factor	0.7
CN(CC(C)(C)C)N=O	mutagenicity, Ames plate incorporation	TA1535	500 µg/plate, without S9, methanol	–	revertant colonies per plate	23.3 ± 3
N#C[C@@]1(n2ccc(N)nc2=O)O[C@H](CO)[C@@H](O)[C@H]1O	–	TA1535	2.5 µM, without S9	–	viability	106%
CN(N=O)c1ccc(F)cc1	mutagenicity, Ames plate incorporation	TA100	150 µg/plate, 3 d, without S9, methanol	–	revertant colonies per plate	155 ± 11
Fc1ccc(C2=CCNCC2)cc1	genotoxicity, SOS/umu test	TA1535/pSK1002	0.002 mg/mL, 4 h, with S9, full range	–	induction factor	1.1
CC(C)N(C)N=O	mutagenicity, Ames plate incorporation	TA100	5000 µg/plate, 3 d, without S9, methanol	–	revertant colonies per plate	178 ± 5
OC(CCN1CC=C(c2ccc(F)cc2)CC1)c1ccc(F)c2ccccc12 (stereo not drawn)	genotoxicity, SOS/umu test	TA1535/pSK1002	0.031 mg/mL, 4 h, with S9, lower range	–	induction factor	0.7
